Measurements collected from several papers.
Protocols differ between the studies behind these lines.

Structure (SMILES) = CC(C)C[C@@H]1NC(=O)[C@H]([C@@H](C)O)NC(=O)[C@H](Cc2ccccc2)NC(=O)CNC(=O)[C@H](Cc2c[nH]c3ccccc23)NC(=O)[C@H](Cc2c[nH]cn2)NC(=O)[C@H](C)NC(=O)[C@@H](N)CCCCNC(=O)C[C@@H](C(N)=O)NC1=O; test = HPLC; system = DMEM/F-12 with 10% FBS; setting = 3 h, 25 °C; stability = stable
Structure (SMILES) = COc1ccnc(C[S+]([O-])c2nc3cc(-n4cccc4)ccc3[nH]2)c1C (stereo not drawn); system = rat plasma; stability = stable
Structure (SMILES) = C#Cc1cccc(N(C(=O)CCl)C(C(=O)NC2CCCCC2)c2ccccn2)c1 (racemic); test = HPLC-MS; system = DPBS; setting = 24 h, 37 °C; stability = unstable
Structure (SMILES) = CCCC(CCC)C(=O)[O][Pt]([NH2])([NH2])([Cl])([Cl])[O]C(=O)C(C)c1ccc(CC(C)C)cc1 (stereo not drawn); test = HPLC; system = phosphate buffer; setting = days, pH 7, 37 °C; stability = stable
Structure (SMILES) = CSCOC1C(=O)C2(C)C(OCSC)CC3OCC3(OC(C)=O)C2C(OC(=O)c2ccccc2)C2(O)CC(OC(=O)C(O)C(C=C(C)C)NC(=O)OC(C)(C)C)C(C)=C1C2(C)C (stereo not drawn); test = HPLC-MS/MS; system = rat plasma; setting = storage and freeze-thaw; stability = stable
Structure (SMILES) = O=C(NC1CCCCC1)C(c1cccnc1)N(C(=O)CCl)c1ccc(F)cc1 (racemic); system = DPBS; setting = 24 h, 37 °C; stability = stable
Structure (SMILES) = CCC(C(=O)O)C1CCC(C)C(C(C)C(O)C(C)C(=O)C(CC)C2OC3(C=CC(NCc4cn(CSc5ccccc5)nn4)C4(CCC(C)(C5CCC(O)(CC)C(C)O5)O4)O3)C(C)CC2C)O1 (stereo not drawn); test = 1H NMR; system = CD3OD; setting = with: iron(II) chloride 0.5 equiv; stability = stable
Structure (SMILES) = C=C(C)C(=O)Nc1ccc(-c2c(-c3ccc(Oc4cccc(C)n4)cc3)c3c(N)ncnc3n2C)cc1; system = plasma and blood; setting = across species; stability = stable
Structure (SMILES) = CC[C@H](C)[C@H](NC(=O)[C@H](CCC(=O)O)NC(=O)[C@H](CC(C)C)NC(=O)[C@H](CC(=O)O)NC(=O)[C@H](CC(=O)O)NC(=O)[C@@H]1CCCN1C(=O)[C@H](CCCNC(=N)N)NC(=O)[C@@H]1CCCN1C(=O)[C@@H](N)CCCNC(=N)N)C(=O)O; system = PBS; setting = 7 d; stability = stable
Structure (SMILES) = NC(=O)C(c1ccccc1)(c1ccc(F)cc1)c1ccc(OCC[18F])cc1 (stereo not drawn); system = human serum; setting = concentration not given, 120 min, 37 °C; stability = stable
Structure (SMILES) = COC(=O)/C=C/C(=O)c1ccc(OC)cc1; system = extracted plasma sample; setting = 12 h, 4 °C; stability = stable
Structure (SMILES) = CCOC(=O)/C(C#N)=C/c1cccc(C(N)=O)c1; setting = buffer with DTT; stability = stable

Repeated from above:
Structure (SMILES) = CC[C@H](C)[C@H](NC(=O)[C@H](CCC(=O)O)NC(=O)[C@H](CC(C)C)NC(=O)[C@H](CC(=O)O)NC(=O)[C@H](CC(=O)O)NC(=O)[C@@H]1CCCN1C(=O)[C@H](CCCNC(=N)N)NC(=O)[C@@H]1CCCN1C(=O)[C@@H](N)CCCNC(=N)N)C(=O)O; system = PBS; setting = 7 d; stability = stable
